Assay results from different studies.
Each line is one published result; not all experiments were run side by side. ± marks the error that the study gave.
alkB full length assumed: alkB full length assumed (Escherichia coli, UniProt P05050)
UniProt P05050, sequence (whole entry, looked up): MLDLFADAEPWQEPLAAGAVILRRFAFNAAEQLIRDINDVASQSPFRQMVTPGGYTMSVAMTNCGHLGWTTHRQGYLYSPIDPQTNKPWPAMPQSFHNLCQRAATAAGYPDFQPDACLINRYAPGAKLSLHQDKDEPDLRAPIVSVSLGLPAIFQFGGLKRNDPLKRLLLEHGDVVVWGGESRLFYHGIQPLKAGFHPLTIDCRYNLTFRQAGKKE
B1: UGT1A9 (Homo sapiens, UniProt O60656); chain GKLLVVPMDGSHWFTMRSVVEKLILRGHEVVVVMPEVSWQLGRSLNCTVKTYSTSYTLEDLDREFKAFAHAQWKAQVRSIYSLLMGSYNDIFDLFFSNCRSLFKDKKLVEYLKESSFDAVFLDPFDNCGLIVAKYFSLPSVVFARGILCHYLEEGAQCPAPLSYVPRILLGFSDAMTFKERVRNHIMHLEEHLLCHRFFKNALEIASEILQTPVTEYDLYSHTSIWLLRTDFVLDYPKPVMPNMIFIGGINCHQGKPLPMEFEAYINASGEHGIVVFSLGSMVSEIPEKKAMAIADALGKIPQTVLWRYTGTRPSNLANNTILVKWLPQNDLLGHPMTRAFITHAGSHGVYESICNGVPMVMMPLFGDQMDNAKRMETKGAGVTLNVLEMTSEDLENALKAVINDKSYKENIMRLSSLHKDRPVEPLDLAVFWVEFVMRHKGAPHLRPAAHDLTWYQYHSLDVIGFLLAVVLTVAFITFKCCAYGYRKCLGKKGRVKKAHKSKTH
UniProt P0AFJ5, sequence (whole entry, looked up): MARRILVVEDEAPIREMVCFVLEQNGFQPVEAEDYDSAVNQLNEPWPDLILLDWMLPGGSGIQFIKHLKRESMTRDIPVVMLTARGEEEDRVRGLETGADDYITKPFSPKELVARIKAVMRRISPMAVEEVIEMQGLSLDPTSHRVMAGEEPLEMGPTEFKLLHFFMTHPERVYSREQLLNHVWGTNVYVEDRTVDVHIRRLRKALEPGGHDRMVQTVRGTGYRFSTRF
UniProt Q8LE43, sequence (whole entry, looked up): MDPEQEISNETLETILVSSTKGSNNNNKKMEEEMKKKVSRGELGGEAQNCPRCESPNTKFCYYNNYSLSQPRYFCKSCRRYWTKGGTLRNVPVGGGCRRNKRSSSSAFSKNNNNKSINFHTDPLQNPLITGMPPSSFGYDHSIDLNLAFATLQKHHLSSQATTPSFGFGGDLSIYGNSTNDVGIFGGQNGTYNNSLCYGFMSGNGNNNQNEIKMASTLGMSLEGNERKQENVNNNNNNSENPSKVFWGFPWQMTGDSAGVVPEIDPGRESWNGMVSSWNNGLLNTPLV
UniProt Q6R0C4, sequence (whole entry, looked up): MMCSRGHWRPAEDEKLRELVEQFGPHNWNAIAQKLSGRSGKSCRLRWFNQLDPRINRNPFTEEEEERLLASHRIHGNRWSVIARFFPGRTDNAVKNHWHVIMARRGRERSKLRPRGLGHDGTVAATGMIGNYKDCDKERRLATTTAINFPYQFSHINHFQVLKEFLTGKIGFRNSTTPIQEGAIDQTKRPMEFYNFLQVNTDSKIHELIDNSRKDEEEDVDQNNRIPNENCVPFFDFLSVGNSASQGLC
UniProt P10721, sequence (whole entry, looked up): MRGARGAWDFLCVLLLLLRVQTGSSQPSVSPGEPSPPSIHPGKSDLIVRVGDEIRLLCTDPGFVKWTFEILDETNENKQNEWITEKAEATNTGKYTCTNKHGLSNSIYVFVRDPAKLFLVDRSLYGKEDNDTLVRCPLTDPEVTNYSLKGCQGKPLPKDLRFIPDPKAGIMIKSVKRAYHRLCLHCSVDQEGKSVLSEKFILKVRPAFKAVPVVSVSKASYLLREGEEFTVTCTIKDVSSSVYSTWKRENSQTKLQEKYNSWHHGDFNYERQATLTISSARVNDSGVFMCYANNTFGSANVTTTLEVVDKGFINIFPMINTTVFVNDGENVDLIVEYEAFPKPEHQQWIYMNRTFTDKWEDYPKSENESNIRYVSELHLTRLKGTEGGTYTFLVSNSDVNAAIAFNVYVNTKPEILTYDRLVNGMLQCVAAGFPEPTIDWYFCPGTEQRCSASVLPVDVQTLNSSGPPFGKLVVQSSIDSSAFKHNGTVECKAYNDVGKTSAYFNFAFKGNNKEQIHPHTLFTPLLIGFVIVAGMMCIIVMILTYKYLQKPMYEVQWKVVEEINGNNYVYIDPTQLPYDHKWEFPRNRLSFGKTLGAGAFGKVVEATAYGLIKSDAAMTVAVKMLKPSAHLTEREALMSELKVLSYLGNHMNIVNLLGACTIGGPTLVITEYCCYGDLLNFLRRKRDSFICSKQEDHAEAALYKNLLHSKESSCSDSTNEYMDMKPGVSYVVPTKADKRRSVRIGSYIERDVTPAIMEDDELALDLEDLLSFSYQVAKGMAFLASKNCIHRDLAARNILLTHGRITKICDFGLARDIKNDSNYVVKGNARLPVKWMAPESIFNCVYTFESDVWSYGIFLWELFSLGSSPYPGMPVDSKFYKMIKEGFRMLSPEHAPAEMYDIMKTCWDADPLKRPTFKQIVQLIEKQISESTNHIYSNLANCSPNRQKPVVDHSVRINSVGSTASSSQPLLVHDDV
UniProt Q60767, sequence (whole entry, looked up): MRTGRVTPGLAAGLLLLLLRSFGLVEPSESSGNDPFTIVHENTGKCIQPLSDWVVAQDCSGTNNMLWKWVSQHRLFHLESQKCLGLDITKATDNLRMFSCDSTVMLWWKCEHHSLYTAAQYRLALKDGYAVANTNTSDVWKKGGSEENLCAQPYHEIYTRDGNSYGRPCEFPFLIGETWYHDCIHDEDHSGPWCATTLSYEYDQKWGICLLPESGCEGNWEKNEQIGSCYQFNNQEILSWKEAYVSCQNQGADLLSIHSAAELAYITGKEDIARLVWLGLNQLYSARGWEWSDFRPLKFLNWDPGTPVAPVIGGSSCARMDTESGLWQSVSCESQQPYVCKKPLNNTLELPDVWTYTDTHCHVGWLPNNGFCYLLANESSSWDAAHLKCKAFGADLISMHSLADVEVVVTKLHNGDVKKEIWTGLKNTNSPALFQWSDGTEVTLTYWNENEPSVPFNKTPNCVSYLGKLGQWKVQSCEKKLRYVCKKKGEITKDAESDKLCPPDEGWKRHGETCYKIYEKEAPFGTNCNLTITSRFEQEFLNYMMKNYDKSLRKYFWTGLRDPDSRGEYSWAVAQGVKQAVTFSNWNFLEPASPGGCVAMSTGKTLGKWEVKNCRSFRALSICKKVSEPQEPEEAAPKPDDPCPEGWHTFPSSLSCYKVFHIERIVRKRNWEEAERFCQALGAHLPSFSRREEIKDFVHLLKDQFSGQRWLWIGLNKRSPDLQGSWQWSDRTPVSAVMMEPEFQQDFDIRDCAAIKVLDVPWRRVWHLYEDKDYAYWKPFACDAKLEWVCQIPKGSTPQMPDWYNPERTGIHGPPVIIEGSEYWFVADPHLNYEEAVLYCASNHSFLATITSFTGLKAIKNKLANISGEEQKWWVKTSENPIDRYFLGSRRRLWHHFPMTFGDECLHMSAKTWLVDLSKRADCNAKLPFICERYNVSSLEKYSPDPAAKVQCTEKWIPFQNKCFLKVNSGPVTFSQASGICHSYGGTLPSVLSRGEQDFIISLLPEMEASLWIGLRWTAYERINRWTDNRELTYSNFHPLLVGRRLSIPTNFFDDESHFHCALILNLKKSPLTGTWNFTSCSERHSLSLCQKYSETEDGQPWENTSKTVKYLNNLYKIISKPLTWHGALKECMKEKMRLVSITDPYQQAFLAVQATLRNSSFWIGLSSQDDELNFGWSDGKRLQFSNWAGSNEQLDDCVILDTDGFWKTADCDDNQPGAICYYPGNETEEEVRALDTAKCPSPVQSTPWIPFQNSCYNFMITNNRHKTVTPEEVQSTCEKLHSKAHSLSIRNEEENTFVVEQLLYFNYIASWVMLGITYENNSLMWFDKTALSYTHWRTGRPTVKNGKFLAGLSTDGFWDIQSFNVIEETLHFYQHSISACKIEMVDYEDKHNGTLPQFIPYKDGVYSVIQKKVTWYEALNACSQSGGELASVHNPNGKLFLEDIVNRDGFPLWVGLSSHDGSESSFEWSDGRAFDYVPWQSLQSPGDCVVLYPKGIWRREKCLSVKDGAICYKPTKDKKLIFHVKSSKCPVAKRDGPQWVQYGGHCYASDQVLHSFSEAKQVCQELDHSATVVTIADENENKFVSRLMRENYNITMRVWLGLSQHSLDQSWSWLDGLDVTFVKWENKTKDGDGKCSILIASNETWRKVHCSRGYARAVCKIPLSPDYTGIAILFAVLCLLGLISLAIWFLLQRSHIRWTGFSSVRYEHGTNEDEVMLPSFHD
UniProt Q02223, sequence (whole entry, looked up): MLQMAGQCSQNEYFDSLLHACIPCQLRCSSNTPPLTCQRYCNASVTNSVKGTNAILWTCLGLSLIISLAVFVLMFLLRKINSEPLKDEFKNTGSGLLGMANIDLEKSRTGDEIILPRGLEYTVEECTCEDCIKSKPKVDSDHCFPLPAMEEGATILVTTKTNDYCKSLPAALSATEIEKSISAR

Substance | tested on | test | test system | conditions | how to read | endpoint | result
GAGUUGAGUUGAGUUGAGUUGAGUUGAGUUGAGUUGAGUUGAGUUGAGUUGAGUU (ssRNA; single strand) | mtrB full length assumed T30P (Bacillus subtilis, UniProt P19466) | filter binding | – | added: L-tryptophan 1 mM | – | Kd | 180 ± 30 nM
YFCHQYL | – | – | peptide, human polyclonal IgM RF SOR | concentration not given, 5 µg/mL mAb II-481 coated, added: RF at 50% max binding concentration | – | inhibition | 0%
GCGGTAAACTGCGTCCGAAGGGGCNTGCAGTGANCCCGAATGGGTCCGCCGCGAAGCG (XNA; Ds at 25 and 34, internal stem-loops, 3' mini-hairpin) | VEGFA fragment (Homo sapiens) | SPR | – | – | – | Kd | 0.0012 nM
CACTGCTCAUGTACAGAGC (ssDNA; single strand; 5-fluoro-dU at 10) | TDG fragment (Homo sapiens) | single-turnover kinetics | – | extrapolated, saturation not reached | – | Kd | 4000 nM
CCCATATCGGTGAATGCACGAGCAACCGATTGACACGGG (ssDNA) | alkB full length assumed | NECEEM | – | – | – | Kd | 29.3 ± 7.7 nM
GTGCCAAAAATTACATGTTTTGTCTTCTGTTTTTGTTGTTTTAATGTAAATTTTGACCATTTGGTCCACTTTTTTCTGCTCGTTTTTATTTCATGCAATCTTCTTGCTGCGCAAGCG (dsDNA (Escherichia coli)) | rutR full length assumed L74A (Escherichia coli, UniProt P0ACU2) | EMSA | double-stranded DNA, one strand shown | added: thymine | – | binding | binds
GAGGCATACCAGCTTATTCAAGGGGCCGGGGCAAGGGGGGGGTACCGTGGTAGGACATAGTAAGTGCAATCTGCGAA (structured DNA) | KIT (Homo sapiens, UniProt P10721) | flow cytometry | primary GIST cells | not purified | higher = more binding | relative binding | 35.8 geometric mean
GGGAGGUGUGUUAGCACACGAUUCAUAAUCAGCUACCCUCCC (XNA aptamer; 2'-F C/U, 3' inverted dT, 5' thiol) | Ly75 28-1723 (Mus musculus, UniProt Q60767) | flow cytometry | A20.Kb | apparent, not purified | – | Kd | 23 ± 6 nM
GAAGCATCCTCGTCAGTAAAAAGTTAATCTTTTCAACAGCTGTCATAAAGTTGTCACGGCCGAGACTTATAGTCGCTTTGTTTTTATTTTTTAATGTATTTGTACATGGAGAATCTAGAAATAATTTTGTTTAACTTTAAGAAGGAGATATACAAATGGTGAGC (dsDNA (Escherichia coli); blunt) | phoB 1-229, phosphorylated (Escherichia coli, UniProt P0AFJ5) | EMSA | double-stranded DNA, one strand shown | – | – | Kd | 590 nM
B1 (UGT1A9) | COc1ccc(-c2cc(=O)c3ccc(O)cc3o2)cc1 | steady-state kinetics | – | pH 7.4, 37 °C | – | Vmax/Km | 227 µL/min/mg
CAGTCATAAGAAGTACTACTAATTATTTCTTTTAAATTTGAATTTGTGTGGGGAATACCAAAGTAACTACTGATTGCTGGTAATTAATGTTTCCAGTGACTAATGAGAAAAAACAACTTGGGATGGAAAACTTATCATC (dsDNA) | MYB52 full length assumed (Arabidopsis thaliana, UniProt Q6R0C4) | EMSA | double-stranded DNA, one strand shown | – | – | binding | binds
AAATAATCATAAAGTATTAAAGTAATATATAC (dsDNA (Arabidopsis thaliana)) | DOF2.1 zinc finger (Arabidopsis thaliana, UniProt Q8LE43) | EMSA | double-stranded DNA, one strand shown | – | – | Kd | 3000 nM
NYLAWYQ | – | – | peptide, human polyclonal IgM RF ABR | concentration not given, 5 µg/mL mAb II-481 coated, added: RF at 50% max binding concentration | – | inhibition | 12%
GACTGCTGATGAGTCACTTTAACGTGGAGCAAAGATTAAA (ssDNA) | alkB full length assumed | NECEEM | – | – | – | Kd | 117 ± 10 nM
AGUGCAAGACGUUCGCAGAUUAGCGAAAAGAGGGUCUCAUUGACUAGUAC (structured RNA; 2'-F pyrimidines, two stem-loops) | TNFRSF17 (Homo sapiens, UniProt Q02223) | qRT-PCR cell binding | COS-7 | 30 min, 37 °C, apparent, transfected, not purified | – | Kd | 79.4 nM
